Results pooled from the literature.
Each line is one published result; not all experiments were run side by side. Converted amounts (≈) assume the structure as drawn.

SMILES | organism | effect on | technique | strain | temperature | notes | MIC
CC[C@H](C)[C@H](NC(=O)[C@H](CCCNC(=N)N)NC(=O)[C@H]1CCCN1C(=O)[C@H](Cc1ccc(O)cc1)NC(=O)[C@@H](NC(=O)[C@@H](NC(=O)[C@H](CCCNC(=N)N)NC(=O)[C@H](Cc1ccccc1)NC(=O)[C@@H](NC(=O)[C@H](Cc1c[nH]c2ccccc12)NC(=O)[C@H](Cc1c[nH]c2ccccc12)NC(C)=O)C(C)C)C(C)C)C(C)C)C(=O)N[C@H](C(=O)N[C@@H](Cc1ccc(O)cc1)C(=O)N[C@@H](CCCNC(=N)N)C(=O)N[C@@H](CCCNC(=N)N)C(=O)N[C@H](C(=O)N[C@@H](CCCNC(=N)N)C(=O)N[C@@H](Cc1c[nH]c2ccccc12)C(=O)N[C@H](C(=O)NCC(=O)N1CCC[C@H]1C(=O)N[C@@H](CCCCN)C(=O)N[C@@H](CCCCN)C(N)=O)[C@@H](C)O)C(C)C)C(C)C | Corynebacterium glutamicum | – | – | ATCC 13032 | 37 °C | – | inactive
C#CCNC(=O)C(C)(C)O/N=C(\C(=O)N[C@@H]1C(=O)N(S(=O)(=O)O)[C@H]1C)c1csc(N)n1 | Serratia marcescens | – | agar dilution | ATCC 21074 susceptible | – | – | 2 µg/mL (≈ 4.23 µM)
CC1C=CC=CC(C)C2C=CC3CC(C)(O)C(Cl)C(C)C3C2C(=O)C(Cl)(Cl)C(=O)C(C)C(=O)O1 (stereo not drawn) | Staphylococcus aureus | – | – | MSSA clinical isolate | – | resistant: PEN,CIP,CLI,DAP,ERY,MXF | 0.025 µg/mL (≈ 0.047 µM)
Cc1c(CN(C)C(=O)/C=C/c2cnc3c(c2)CC(N)C(=O)N3)oc2ccccc12 (stereo not drawn) | Klebsiella pneumoniae | microbial growth | broth dilution | BAA2473 | – | – | 16 µg/mL (≈ 41 µM)
COC1C=COC2(C)Oc3c(C)c(O)c4c(c3C2=O)C2=NC3(CCN(CC(C)C)CC3)NC2=C(NC(=O)C(C)=CC=CC(C)C(O)C(C)C(O)C(C)C(OC(=O)c2cccnc2)C1C)C4=O (stereo not drawn) | Mycobacteroides abscessus | – | – | ATCC 19977 | – | single-strain MIC | 140 µg/mL (≈ 154 µM)
CC1(C)[C@H](NC(=O)/C(=N\OCc2cc(=O)c(O)cn2O)c2csc(N)n2)C(=O)N1OS(=O)(=O)O | Serratia marcescens | – | agar dilution | ATCC 21074 susceptible | – | – | 0.125 µg/mL (≈ 0.241 µM)
N=C(N)NCCC[C@@H]1NC(=O)[C@@H](CCCNC(=N)N)NC(=O)[C@H](CCCNC(=N)N)NC(=O)[C@@H](C(c2ccccc2)c2ccccc2)NC(=O)[C@@H](C(c2ccccc2)c2ccccc2)NC(=O)[C@@H](C(c2ccccc2)c2ccccc2)NC(=O)[C@@H](CCCNC(=N)N)NC1=O | Blastomyces dermatitidis | – | – | BD-2 | – | – | 1 µg/mL (≈ 0.772 µM)
C#CCO/N=C(\C(=O)N[C@@H]1C(=O)N(OS(=O)(=O)O)C1(C)C)c1nsc(N)n1 | Serratia marcescens | – | agar dilution | ATCC 21074, susceptible | – | – | 16 µg/mL (≈ 38.2 µM)
C[C@@H]1C(=O)O[C@@H](C)/C=C/C=C\[C@@H](C)[C@@H]2C=C[C@@H]3C[C@@]4(C)O[C@H]4[C@@H](C)[C@H]3[C@@H]2C(=O)C(Cl)(Cl)C1=O | Staphylococcus aureus | – | – | MSSA clinical isolate | – | PEN CLI ERY TET resistant | 0.025 µg/mL (≈ 0.0505 µM)
N=C(N)NCCC[C@@H]1NC(=O)[C@H](CCCNC(=N)N)NC(=O)[C@@H](CCCNC(=N)N)NC(=O)[C@@H](CCCNC(=N)N)NC(=O)[C@@H](C(c2ccccc2)c2ccccc2)NC(=O)[C@H](Cc2c[nH]c3ccccc23)NC(=O)[C@@H](C(c2ccccc2)c2ccccc2)NC1=O | Blastomyces dermatitidis | – | – | BD-2 | – | – | 1 µg/mL (≈ 0.795 µM)
C#CCO/N=C(\C(=O)N[C@@H]1C(=O)N(OS(=O)(=O)O)C1(C)C)c1csc(N)n1 | Serratia marcescens | – | agar dilution | ATCC 21074, susceptible | – | – | 0.5 µg/mL (≈ 1.2 µM)
CCCC(C)Oc1cccc(NC(=O)c2cccnc2)c1 (stereo not drawn) | Aspergillus fumigatus | microbial growth | broth dilution | MF5668 | – | – | 128 µg/mL (≈ 450 µM)
C=C(NC(=O)c1csc(-c2nc3c(cc2O)-c2nc(cs2)C(=O)NC(C(C)O)C(=O)NC(=C(C)OC)c2nc(cs2)C(=O)NC2c4nc(cs4)C(=O)NC(COC(=O)c4c5c6c(cccc6n4O)COC(=O)C(OC4CC(C)(O)C(N(C)C)C(C)O4)C2OC5)c2nc-3cs2)n1)C(N)=O (stereo not drawn) | Staphylococcus aureus | microbial growth | – | MRSA | – | – | 0.0078 µg/mL (≈ 0.00543 µM)
CC1(C)[C@H](NC(=O)/C(=N\OC2(C(=O)O)CCCC2)c2csc(N)n2)C(=O)N1OS(=O)(=O)O | Serratia marcescens | – | agar dilution | ATCC 21074, susceptible | – | – | 0.5 µg/mL (≈ 1.02 µM)
N=C(N)NCCC[C@@H]1NC(=O)[C@H](CCCNC(=N)N)NC(=O)[C@H](CCCNC(=N)N)NC(=O)[C@@H](CCCNC(=N)N)NC(=O)[C@H](Cc2ccc3ccccc3c2)NC(=O)[C@H](Cc2ccc3ccccc3c2)NC(=O)[C@H](Cc2ccc3ccccc3c2)NC1=O | Blastomyces dermatitidis | – | – | BD-1 | – | – | 2 µg/mL (≈ 1.64 µM)

A few entries again:
SMILES | organism | effect on | technique | strain | temperature | notes | MIC
COC1C=COC2(C)Oc3c(C)c(O)c4c(c3C2=O)C2=NC3(CCN(CC(C)C)CC3)NC2=C(NC(=O)C(C)=CC=CC(C)C(O)C(C)C(O)C(C)C(OC(=O)c2cccnc2)C1C)C4=O (stereo not drawn) | Mycobacteroides abscessus | – | – | ATCC 19977 | – | single-strain MIC | 140 µg/mL (≈ 154 µM)
